Published values pooled from the literature.
Lines come from different studies, so protocols differ. Numbers after ± are the reported error.
UniProt P20813, sequence (whole entry, looked up): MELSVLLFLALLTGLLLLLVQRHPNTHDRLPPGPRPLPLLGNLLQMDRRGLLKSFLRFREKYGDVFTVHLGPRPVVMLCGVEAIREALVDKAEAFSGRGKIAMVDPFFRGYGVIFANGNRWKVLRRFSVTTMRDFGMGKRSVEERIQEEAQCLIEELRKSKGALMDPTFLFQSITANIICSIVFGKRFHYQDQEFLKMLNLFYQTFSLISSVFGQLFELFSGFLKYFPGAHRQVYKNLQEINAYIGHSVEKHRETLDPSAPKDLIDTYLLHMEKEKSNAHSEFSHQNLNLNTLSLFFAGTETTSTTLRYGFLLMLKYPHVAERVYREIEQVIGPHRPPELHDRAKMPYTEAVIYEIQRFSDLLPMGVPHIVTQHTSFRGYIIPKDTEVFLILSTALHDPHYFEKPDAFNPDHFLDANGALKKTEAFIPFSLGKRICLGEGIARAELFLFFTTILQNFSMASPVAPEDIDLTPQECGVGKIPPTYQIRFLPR
UniProt O94956, sequence (whole entry, looked up): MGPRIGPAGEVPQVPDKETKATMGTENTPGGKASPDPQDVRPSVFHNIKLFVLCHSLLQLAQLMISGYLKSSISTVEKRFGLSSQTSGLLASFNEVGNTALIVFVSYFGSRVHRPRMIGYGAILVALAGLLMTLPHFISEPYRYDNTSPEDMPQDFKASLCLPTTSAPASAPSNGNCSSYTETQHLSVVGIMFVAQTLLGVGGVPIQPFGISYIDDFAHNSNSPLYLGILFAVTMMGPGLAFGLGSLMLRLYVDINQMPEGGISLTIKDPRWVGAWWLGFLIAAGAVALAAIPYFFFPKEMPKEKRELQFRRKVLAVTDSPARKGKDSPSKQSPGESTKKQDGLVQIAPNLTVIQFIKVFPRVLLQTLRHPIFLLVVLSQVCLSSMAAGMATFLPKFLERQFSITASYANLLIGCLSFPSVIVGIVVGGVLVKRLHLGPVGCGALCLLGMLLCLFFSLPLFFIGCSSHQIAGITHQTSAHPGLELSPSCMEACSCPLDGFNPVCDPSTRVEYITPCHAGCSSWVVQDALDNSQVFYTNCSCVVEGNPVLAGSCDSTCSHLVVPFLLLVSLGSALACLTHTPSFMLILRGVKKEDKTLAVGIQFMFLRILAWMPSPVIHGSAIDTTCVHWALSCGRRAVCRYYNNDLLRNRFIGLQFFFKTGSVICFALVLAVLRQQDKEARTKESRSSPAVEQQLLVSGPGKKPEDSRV
UniProt Q9Y6L6, sequence (whole entry, looked up): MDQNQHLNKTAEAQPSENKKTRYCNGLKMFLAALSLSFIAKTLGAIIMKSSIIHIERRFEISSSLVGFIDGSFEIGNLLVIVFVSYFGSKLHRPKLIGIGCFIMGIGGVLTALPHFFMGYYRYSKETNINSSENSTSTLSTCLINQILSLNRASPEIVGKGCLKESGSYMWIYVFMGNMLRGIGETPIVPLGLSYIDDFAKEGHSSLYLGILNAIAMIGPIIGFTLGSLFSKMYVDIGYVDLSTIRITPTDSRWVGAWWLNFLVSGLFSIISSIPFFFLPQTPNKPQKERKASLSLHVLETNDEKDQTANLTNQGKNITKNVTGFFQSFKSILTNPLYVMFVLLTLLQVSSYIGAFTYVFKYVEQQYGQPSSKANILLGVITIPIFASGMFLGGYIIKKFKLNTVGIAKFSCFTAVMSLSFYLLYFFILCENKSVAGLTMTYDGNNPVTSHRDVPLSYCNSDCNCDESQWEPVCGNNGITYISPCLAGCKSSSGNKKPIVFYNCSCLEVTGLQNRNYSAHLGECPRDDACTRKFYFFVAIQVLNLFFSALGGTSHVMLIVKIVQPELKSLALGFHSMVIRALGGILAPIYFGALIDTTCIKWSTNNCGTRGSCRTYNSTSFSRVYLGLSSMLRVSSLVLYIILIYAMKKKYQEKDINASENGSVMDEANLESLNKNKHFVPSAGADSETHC
UniProt P61073, sequence (whole entry, looked up): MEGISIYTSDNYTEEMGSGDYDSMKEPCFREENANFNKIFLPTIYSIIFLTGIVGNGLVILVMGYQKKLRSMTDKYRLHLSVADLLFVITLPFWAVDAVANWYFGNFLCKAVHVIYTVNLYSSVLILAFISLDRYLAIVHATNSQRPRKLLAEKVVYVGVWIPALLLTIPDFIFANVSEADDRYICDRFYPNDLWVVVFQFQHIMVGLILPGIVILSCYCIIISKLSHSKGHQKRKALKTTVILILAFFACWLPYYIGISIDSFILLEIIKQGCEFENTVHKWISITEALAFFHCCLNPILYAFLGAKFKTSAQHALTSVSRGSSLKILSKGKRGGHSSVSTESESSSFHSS

| Structure (SMILES) | target or system | test | test system | conditions | scale | measurement | value |
| --- | --- | --- | --- | --- | --- | --- | --- |
| C=CC(=O)Nc1cc(Nc2nccc(-c3cn(C)c4ccccc34)n2)c(OCC(F)(F)F)nc1N(C)CCN(C)C | Cytochrome P450 2B6 (CYP2B6, Homo sapiens, UniProt P20813) | enzyme activity, inhibitor | human, liver microsomes | 10 µM |  | activity vs control | 101% |
| C=C(C)[C@@H]1CCC(C(=O)O)=C[C@H]1c1c(O)cc(CCCCC)cc1O | CYP3A4/CYP2C19 |  | human | dose not given, single dose, added: rifampicin 600 mg once daily |  | half-life | 16 h |
| N=C(N)NCCC[C@@H]1NC(=O)[C@H](CCCCNC(=O)CC[C@H](NC(=O)CCOCCOCCOCCOCCNC(=O)CC[C@H](NC(=O)CN2CCN(CC(=O)O)CCN(CC(=O)O)CCN(CC(=O)O)CC2)C(=O)NCCOCCOCCOCCOCCC(=O)N[C@@H](CCC(=O)NCCCC[C@@H]2NC(=O)[C@@H](Cc3ccccc3)NC(=O)[C@H](CC(=O)O)NC(=O)CNC(=O)[C@H](CCCNC(=N)N)NC2=O)C(=O)NCCCC[C@@H]2NC(=O)[C@@H](Cc3ccccc3)NC(=O)[C@H](CC(=O)O)NC(=O)CNC(=O)[C@H](CCCNC(=N)N)NC2=O)C(=O)NCCCC[C@@H]2NC(=O)[C@@H](Cc3ccccc3)NC(=O)[C@H](CC(=O)O)NC(=O)CNC(=O)[C@H](CCCNC(=N)N)NC2=O)NC(=O)[C@@H](Cc2ccccc2)NC(=O)[C@H](CC(=O)O)NC(=O)CNC1=O [indium-111 labelled] |  |  | female athymic nude mice, heart | intravenous, 3 µCi, 0.5 h, U-87 MG glioma xenograft |  | tissue uptake | 1.12 ± 0.2 %ID/g |
| CC(CCC(=O)NCC(=O)O)C1CCC2C3C(O)CC4CC(OC5OC(C(=O)O)C(O)C(O)C5O)CCC4(C)C3CCC12C (stereo not drawn) | Solute carrier organic anion transporter family member 2B1 (SLCO2B1, Homo sapiens, UniProt O94956) | substrate | transfected HEK293 cells | 1 µM, 2 min | reference: wild-type HEK293 cells | uptake ratio | 2.8 ± 0.5 |
| C=C(C)[C@@H]1CCC(CO)=C[C@H]1c1c(O)cc(CCCCC)cc1O | CYP3A4/CYP2C19 |  | human | dose not given, single dose, added: rifampicin steady state |  | decrease in AUC(0-tau) | 63% |
| CN[C@](C)(C[18F])C(=O)O | A549 tumour model |  | host not given, lung | 30 min, tumour-bearing |  | tracer uptake | 2.8 %ID/g |
| CC[C@H](C)C(=O)N1CCC(NC(=O)Nc2ccc(OC(F)(F)F)c(F)c2)CC1 |  |  | human, plasma | oral, 8 mg, single dose, fed, healthy volunteers |  | Vd/F | 164 L |
| CN1C(=O)[C@@H](Cc2ccc(O)cc2)NC(=O)CNC(=O)[C@H](Cc2ccc3ccccc3c2)NC(=O)[C@H](CCCNC(=N)N)NC(=O)[C@H]1CCCNC(=O)c1ccc(CNC(=O)CN2CCN(CC(=O)O)CCN(CC(=O)O)CCN(CC(=O)O)CC2)cc1 [gallium-68 labelled] | C-X-C chemokine receptor type 4 (CXCR4, Homo sapiens, UniProt P61073) | PET imaging | human, liver |  |  | SUVmean | 1.46 |
| N=C(N)NCCC[C@@H]1NC(=O)[C@H](CCCCNC(=O)CNC(=O)CNC(=O)CNC(=O)CC[C@H](NC(=O)CCOCCOCCOCCOCCNC(=O)CC[C@H](NC(=O)CN2CCN(CC(=O)O)CCN(CC(=O)O)CCN(CC(=O)O)CC2)C(=O)NCCOCCOCCOCCOCCC(=O)N[C@@H](CCC(=O)NCC(=O)NCC(=O)NCC(=O)NCCCC[C@@H]2NC(=O)[C@@H](Cc3ccccc3)NC(=O)[C@H](CC(=O)O)NC(=O)CNC(=O)[C@H](CCCNC(=N)N)NC2=O)C(=O)NCC(=O)NCC(=O)NCC(=O)NCCCC[C@@H]2NC(=O)[C@@H](Cc3ccccc3)NC(=O)[C@H](CC(=O)O)NC(=O)CNC(=O)[C@H](CCCNC(=N)N)NC2=O)C(=O)NCC(=O)NCC(=O)NCC(=O)NCCCC[C@@H]2NC(=O)[C@@H](Cc3ccccc3)NC(=O)[C@H](CC(=O)O)NC(=O)CNC(=O)[C@H](CCCNC(=N)N)NC2=O)NC(=O)[C@@H](Cc2ccccc2)NC(=O)[C@H](CC(=O)O)NC(=O)CNC1=O [indium-111 labelled] |  |  | female athymic nude mice, muscle | intravenous, 3 µCi, 0.5 h, U-87 MG glioma xenograft |  | tissue uptake | 1.64 ± 0.42 %ID/g |
| CC(CCC(=O)NCC(=O)O)C1CCC2C3CCC4CC(OC5OC(C(=O)O)C(O)C(O)C5O)CCC4(C)C3CC(O)C12C (stereo not drawn) | Solute carrier organic anion transporter family member 1B1 (SLCO1B1, Homo sapiens, UniProt Q9Y6L6) | transporter uptake, inhibitor |  |  |  | IC50 | ≤ 28 µM |
| CNC(=O)CC[C@@H](NC(=O)[C@@H](Cc1ccc(OP(=O)(O)O)cc1)NC(=O)[C@@H](Cc1ccccc1)NC(=O)[C@@H](Cc1ccccc1)NC(=O)Cc1ccc2ccccc2c1)C(=O)NC | alkaline phosphatase | substrate | SAOS-2 | 200 µM, 24 h |  | dephosphorylated fraction | 89.6% |
| [64Cu+2].c1ccc(CNCc2ccc(CN3CCCNCCNCCCNCC3)cc2)nc1 | CXCR4 |  | NOD/SCID mouse, U87 and U87-stb-CXCR4 xenografts, heart | iv, 90 min, no blocking dose, ex vivo |  | tissue uptake | 1.08 ± 0.38 %ID/g |

Some of these lines once more:
| Structure (SMILES) | target or system | test | test system | conditions | scale | measurement | value |
| --- | --- | --- | --- | --- | --- | --- | --- |
| N=C(N)NCCC[C@@H]1NC(=O)[C@H](CCCCNC(=O)CNC(=O)CNC(=O)CNC(=O)CC[C@H](NC(=O)CCOCCOCCOCCOCCNC(=O)CC[C@H](NC(=O)CN2CCN(CC(=O)O)CCN(CC(=O)O)CCN(CC(=O)O)CC2)C(=O)NCCOCCOCCOCCOCCC(=O)N[C@@H](CCC(=O)NCC(=O)NCC(=O)NCC(=O)NCCCC[C@@H]2NC(=O)[C@@H](Cc3ccccc3)NC(=O)[C@H](CC(=O)O)NC(=O)CNC(=O)[C@H](CCCNC(=N)N)NC2=O)C(=O)NCC(=O)NCC(=O)NCC(=O)NCCCC[C@@H]2NC(=O)[C@@H](Cc3ccccc3)NC(=O)[C@H](CC(=O)O)NC(=O)CNC(=O)[C@H](CCCNC(=N)N)NC2=O)C(=O)NCC(=O)NCC(=O)NCC(=O)NCCCC[C@@H]2NC(=O)[C@@H](Cc3ccccc3)NC(=O)[C@H](CC(=O)O)NC(=O)CNC(=O)[C@H](CCCNC(=N)N)NC2=O)NC(=O)[C@@H](Cc2ccccc2)NC(=O)[C@H](CC(=O)O)NC(=O)CNC1=O [indium-111 labelled] |  |  | female athymic nude mice, muscle | intravenous, 3 µCi, 0.5 h, U-87 MG glioma xenograft |  | tissue uptake | 1.64 ± 0.42 %ID/g |
| CC(CCC(=O)NCC(=O)O)C1CCC2C3C(O)CC4CC(OC5OC(C(=O)O)C(O)C(O)C5O)CCC4(C)C3CCC12C (stereo not drawn) | Solute carrier organic anion transporter family member 2B1 (SLCO2B1, Homo sapiens, UniProt O94956) | substrate | transfected HEK293 cells | 1 µM, 2 min | reference: wild-type HEK293 cells | uptake ratio | 2.8 ± 0.5 |
